# Results pooled from the literature.
# Numbered parts are unrelated; each lists some results of a single study. Values joined by “and” are separate records of one study, mostly repeats; a detail may differ.
# Chain of UniProt Q9UEE5 (whole entry, looked up): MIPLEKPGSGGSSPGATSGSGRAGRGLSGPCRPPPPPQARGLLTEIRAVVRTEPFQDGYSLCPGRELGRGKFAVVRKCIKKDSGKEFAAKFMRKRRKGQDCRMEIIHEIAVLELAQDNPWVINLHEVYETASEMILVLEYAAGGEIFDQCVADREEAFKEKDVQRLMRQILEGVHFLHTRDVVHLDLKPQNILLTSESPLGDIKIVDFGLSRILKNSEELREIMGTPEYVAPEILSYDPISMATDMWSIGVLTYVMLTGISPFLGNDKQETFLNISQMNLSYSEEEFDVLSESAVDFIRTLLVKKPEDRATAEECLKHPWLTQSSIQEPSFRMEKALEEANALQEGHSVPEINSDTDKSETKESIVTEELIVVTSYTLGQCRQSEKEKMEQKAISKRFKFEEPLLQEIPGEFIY
# Chain of UniProt P54760 (whole entry, looked up): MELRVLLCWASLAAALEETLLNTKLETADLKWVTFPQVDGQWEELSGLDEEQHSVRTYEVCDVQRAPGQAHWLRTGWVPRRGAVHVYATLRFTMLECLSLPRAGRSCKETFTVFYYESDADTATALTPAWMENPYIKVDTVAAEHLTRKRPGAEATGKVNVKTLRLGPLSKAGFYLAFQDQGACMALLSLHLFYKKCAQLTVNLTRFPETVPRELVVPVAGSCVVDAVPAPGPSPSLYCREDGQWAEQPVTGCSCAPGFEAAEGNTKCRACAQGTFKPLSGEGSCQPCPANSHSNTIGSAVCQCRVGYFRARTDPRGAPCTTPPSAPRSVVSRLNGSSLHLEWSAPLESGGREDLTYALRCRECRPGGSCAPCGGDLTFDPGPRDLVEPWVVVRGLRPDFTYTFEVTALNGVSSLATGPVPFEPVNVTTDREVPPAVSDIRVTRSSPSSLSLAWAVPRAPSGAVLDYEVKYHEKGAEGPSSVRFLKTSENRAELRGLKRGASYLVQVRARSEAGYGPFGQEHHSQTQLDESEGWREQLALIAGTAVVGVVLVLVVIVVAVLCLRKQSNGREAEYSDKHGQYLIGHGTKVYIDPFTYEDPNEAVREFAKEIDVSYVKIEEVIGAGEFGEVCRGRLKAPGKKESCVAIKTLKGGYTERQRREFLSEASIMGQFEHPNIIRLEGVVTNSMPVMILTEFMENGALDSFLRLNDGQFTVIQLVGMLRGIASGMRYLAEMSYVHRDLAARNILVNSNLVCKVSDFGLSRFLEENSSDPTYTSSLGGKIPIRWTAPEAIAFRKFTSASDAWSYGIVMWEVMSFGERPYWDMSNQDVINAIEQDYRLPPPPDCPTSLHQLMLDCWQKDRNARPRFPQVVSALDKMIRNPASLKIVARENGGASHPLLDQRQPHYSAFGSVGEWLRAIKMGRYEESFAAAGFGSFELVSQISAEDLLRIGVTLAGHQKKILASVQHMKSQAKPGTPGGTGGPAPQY
# Chain of UniProt Q9UK32 (whole entry, looked up): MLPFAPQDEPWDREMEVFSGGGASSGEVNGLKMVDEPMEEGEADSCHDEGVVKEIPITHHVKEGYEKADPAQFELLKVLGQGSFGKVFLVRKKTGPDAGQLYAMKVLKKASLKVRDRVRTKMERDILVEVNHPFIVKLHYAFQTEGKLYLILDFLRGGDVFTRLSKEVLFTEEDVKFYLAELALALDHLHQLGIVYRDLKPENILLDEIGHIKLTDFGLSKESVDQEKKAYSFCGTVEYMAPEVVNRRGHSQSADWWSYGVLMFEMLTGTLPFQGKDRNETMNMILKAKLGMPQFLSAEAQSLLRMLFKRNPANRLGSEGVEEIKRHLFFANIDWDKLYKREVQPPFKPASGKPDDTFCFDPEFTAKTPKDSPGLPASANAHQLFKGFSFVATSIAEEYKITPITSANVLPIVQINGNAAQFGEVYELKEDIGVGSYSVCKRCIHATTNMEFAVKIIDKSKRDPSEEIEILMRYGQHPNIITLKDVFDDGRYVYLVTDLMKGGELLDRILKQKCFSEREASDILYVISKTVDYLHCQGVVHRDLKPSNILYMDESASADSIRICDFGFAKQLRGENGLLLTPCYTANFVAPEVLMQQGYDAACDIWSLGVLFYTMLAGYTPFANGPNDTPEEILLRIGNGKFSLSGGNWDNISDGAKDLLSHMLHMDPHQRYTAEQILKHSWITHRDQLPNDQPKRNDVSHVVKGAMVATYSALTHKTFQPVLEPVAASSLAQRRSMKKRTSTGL
# Chain of UniProt Q9H2X6 (whole entry, looked up): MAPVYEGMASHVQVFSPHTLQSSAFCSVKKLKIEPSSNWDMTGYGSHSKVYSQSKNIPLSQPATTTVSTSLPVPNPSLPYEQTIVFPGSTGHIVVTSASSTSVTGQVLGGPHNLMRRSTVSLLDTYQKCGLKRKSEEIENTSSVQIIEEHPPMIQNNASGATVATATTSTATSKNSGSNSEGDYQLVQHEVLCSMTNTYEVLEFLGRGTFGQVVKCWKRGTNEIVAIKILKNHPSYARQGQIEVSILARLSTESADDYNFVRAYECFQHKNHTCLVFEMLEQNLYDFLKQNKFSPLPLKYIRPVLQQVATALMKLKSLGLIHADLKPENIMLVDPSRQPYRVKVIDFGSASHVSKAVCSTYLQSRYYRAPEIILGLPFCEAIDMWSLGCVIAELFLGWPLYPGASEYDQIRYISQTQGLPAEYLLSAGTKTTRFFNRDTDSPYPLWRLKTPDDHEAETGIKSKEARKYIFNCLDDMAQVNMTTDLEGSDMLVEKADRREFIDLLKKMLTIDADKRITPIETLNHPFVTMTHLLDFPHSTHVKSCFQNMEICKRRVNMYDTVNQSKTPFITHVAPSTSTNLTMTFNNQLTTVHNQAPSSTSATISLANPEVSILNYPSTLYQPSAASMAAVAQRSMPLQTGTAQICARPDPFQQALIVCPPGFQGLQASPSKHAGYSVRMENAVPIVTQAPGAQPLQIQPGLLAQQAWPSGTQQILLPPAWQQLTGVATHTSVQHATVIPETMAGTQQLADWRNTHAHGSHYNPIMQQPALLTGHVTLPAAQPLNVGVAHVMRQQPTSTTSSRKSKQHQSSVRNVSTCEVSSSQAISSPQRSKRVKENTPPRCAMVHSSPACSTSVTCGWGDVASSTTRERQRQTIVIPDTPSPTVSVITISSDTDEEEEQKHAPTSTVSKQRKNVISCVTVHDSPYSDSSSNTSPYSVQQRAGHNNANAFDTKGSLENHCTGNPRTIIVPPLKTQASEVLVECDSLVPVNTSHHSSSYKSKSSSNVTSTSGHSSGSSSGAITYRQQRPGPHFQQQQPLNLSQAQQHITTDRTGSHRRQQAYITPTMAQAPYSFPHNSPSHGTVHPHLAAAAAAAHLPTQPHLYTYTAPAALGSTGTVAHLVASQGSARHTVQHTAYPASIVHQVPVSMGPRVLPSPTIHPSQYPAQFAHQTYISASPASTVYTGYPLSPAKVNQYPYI
# Chain of UniProt O43781 (whole entry, looked up): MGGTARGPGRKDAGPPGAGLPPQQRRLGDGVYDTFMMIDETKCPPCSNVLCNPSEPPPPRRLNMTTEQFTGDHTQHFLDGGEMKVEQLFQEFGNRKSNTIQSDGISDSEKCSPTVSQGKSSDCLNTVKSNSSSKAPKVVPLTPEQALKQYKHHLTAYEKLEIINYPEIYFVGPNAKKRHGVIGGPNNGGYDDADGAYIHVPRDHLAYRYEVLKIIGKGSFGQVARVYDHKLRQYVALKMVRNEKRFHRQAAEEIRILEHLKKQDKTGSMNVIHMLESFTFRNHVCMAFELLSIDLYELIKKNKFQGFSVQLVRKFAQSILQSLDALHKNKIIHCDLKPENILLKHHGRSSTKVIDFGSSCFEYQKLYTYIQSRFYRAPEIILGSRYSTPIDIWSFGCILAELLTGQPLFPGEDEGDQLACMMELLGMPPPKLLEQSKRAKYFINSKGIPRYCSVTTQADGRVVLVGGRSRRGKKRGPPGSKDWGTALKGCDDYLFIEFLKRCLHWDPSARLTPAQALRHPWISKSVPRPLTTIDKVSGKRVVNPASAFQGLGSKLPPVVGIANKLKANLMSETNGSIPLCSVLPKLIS
# Chain of UniProt Q8NE63 (whole entry, looked up): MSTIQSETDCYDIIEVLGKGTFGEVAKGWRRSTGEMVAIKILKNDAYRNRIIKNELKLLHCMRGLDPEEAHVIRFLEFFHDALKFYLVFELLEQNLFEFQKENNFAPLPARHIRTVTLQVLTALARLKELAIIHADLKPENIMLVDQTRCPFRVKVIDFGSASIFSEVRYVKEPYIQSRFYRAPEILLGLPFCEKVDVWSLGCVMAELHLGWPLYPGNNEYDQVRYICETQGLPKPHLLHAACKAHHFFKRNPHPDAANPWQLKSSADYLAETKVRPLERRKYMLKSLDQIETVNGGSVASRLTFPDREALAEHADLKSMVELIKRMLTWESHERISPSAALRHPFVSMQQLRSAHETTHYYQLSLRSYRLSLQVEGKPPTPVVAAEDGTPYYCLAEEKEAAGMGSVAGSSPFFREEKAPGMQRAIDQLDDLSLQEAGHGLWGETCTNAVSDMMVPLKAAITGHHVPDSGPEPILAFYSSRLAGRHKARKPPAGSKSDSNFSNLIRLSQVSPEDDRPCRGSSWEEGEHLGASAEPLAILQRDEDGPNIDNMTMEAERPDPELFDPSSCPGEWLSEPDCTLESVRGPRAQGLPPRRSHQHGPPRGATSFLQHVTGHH

# Set 1
# SMILES: c1ccc(Oc2ccc(Nc3c4c(nc5ccccc35)CCC4)cc2)cc1
# Organism: Leishmania donovani
# Strain: DD8
test,test system,conditions,inhibition
parasite killing,promastigotes,"3.33 µM, 96 h",94% and 99%
parasite killing,promastigotes,"33.33 µM, 96 h",100%
parasite killing,promastigotes,"0.33 µM, 96 h",34% and 30%
parasite killing,intracellular amastigotes,"4 µM, 96 h",98% and 97% and 95%
parasite killing,intracellular amastigotes,"0.8 µM, 72 h",65% and 61% and 67%
parasite killing,promastigotes,"16.66 µM, 48 h",100%
"parasite viability, resazurin",promastigotes,0.66 µM,51% and 52% and 59% and 60%
parasite killing,intracellular amastigotes,"0.04 µM, 72 h",4% and 2%
"parasite viability, resazurin",promastigotes,33.33 µM,100%

# Set 2
# Target: Alpha-2C adrenergic receptor (ADRA2C, Homo sapiens, UniProt P18825)
# Chain of UniProt P18825 (whole entry, looked up): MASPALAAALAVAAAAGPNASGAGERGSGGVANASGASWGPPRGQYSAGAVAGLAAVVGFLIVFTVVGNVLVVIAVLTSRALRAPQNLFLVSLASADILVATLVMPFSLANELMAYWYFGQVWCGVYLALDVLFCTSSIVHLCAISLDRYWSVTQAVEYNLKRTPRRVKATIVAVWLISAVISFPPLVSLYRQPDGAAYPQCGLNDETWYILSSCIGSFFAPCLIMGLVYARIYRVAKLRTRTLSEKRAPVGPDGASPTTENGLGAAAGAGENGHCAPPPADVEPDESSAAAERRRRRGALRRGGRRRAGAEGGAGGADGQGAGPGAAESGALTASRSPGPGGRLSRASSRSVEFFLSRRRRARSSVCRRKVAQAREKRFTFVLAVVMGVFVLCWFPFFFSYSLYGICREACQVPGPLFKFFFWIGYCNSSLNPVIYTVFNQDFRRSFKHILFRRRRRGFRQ
# Read-out: ligand displacement
# Concentration: 10 µM
Structure (SMILES),inhibition
O=c1nc(-c2ccccn2)sc2ccccc12,-9.43%
Cc1ncc(-c2cc(Cl)ccc2F)cc1-n1c(=O)n(CC(N)=O)c2ccccc21,17.9%
COc1cc(N[C@@H]2CCCC[C@]2(O)C(F)(F)F)ccc1F,-3.92%
CCC(F)(F)c1cc(N2CCC(S(C)(=O)=O)CC2)nc2sc(C(N)=O)c(N)c12,13.7%
CN1CCN(C(=O)C(C)(C)c2ccc(C(=O)Nc3cn4cc(-c5cc(C(C)(C)C)cc(C(C)(C)C)c5)ccc4n3)cc2)CC1,88.5%
CS(=O)(=O)N1CCCC(NC(=O)[C@H](CCC2CCCCC2)NC(=O)c2ccc(CNC(=O)c3cnc4ccccn34)cc2)C1 (some centres unmarked),5.25%
CC[C@H](CC(=O)O)n1c(=O)c2ncccc2n(Cc2cn(C)c3cc(C)cc(C)c23)c1=O,13.8%
CN(C)C(=O)c1sc2nc(N3CCC(S(C)(=O)=O)CC3)cc(C(F)(F)F)c2c1N,2.96%
CN([C@@H]1CCc2c(CC(=O)O)c3ccccc3n2C1)S(=O)(=O)c1ccc(F)cc1,-3.1%
CCC(=NO)C(C)=Cc1ccc(F)c(C)c1,15.7%
COc1cc(C(=O)O)ncc1C#Cc1ccccc1NS(=O)(=O)c1cccc2c(N(C)C)ccnc12,13%
Cn1nc(C(=O)NCc2ccc(C(=O)O)cc2)cc1-c1ccc2[nH]ccc2c1,-7.92%
COCCOc1nc(-c2ccc(Cl)nc2)nc2c1CN(C(=O)c1ncn3ccccc13)CC2,1.3%
c1ccc(N2CCN(Cc3nc4ccccc4[nH]3)CC2)nc1,9.49%
Cc1ccccc1Oc1cc(-n2c(=O)cc(C(F)(F)F)[nH]c2=O)c2ccccc2c1Cl,10.8%
O=S(=O)(NC1CCC(c2cc(F)ccc2F)(S(=O)(=O)c2ccc(Cl)cc2)CC1)C(F)(F)F (centres unmarked),18.2%
CC1=C(C#N)C(c2ccc3[nH]nc(C)c3c2)C(C#N)=C(C)N1,-4.65%
NS(=O)(=O)c1cc(NC(=O)Cc2ccccc2)ccc1Oc1cccc(Cl)c1,18.2%
Cc1ccc(-c2cnc([C@@]3(O)CC[C@H](C(=O)O)C(C)(C)C3)s2)cc1Nc1cccc(C(F)(F)F)n1,11.9%
C[C@H](c1ccnc(Nc2nc3ccc(-c4cc(N(C)C)ncn4)cc3[nH]2)c1)N1CCN(C(=O)CC(F)(F)F)CC1,9.82%
CN(C)CC#Cc1ccc(OCCCc2sc(N3CCc4cccc(C(=O)Nc5nc6ccccc6s5)c4C3)nc2C(=O)O)c(F)c1,10.8%
Cc1cc(Nc2nccc(C)n2)cc(-c2cnc([C@@]3(O)CC[C@H](C(=O)O)C(C)(C)C3)s2)c1,-3.94%
CNC(=O)Nc1ccc2c(c1)CC[C@]21OC(=O)N(CC(=O)N(Cc2ccc(F)cc2)[C@@H](C)C(F)(F)F)C1=O,20.7%
Cc1noc([C@H]2C[C@@H](c3ccc(C(F)(F)F)cc3)CN(C(=O)N3CCS(=O)(=O)C3)C2)n1,10.5%
Nc1nc(NCc2ccccc2)nc(-c2cccc(CO)c2)n1,1.4%

# Set 3
# Host: human
# Matrix: microsomes or S9
# Concentration: 2 µM
# Time: 0.5 h
SMILES,remaining compound [%]
Cc1n[nH]c(CC(=O)N2C[C@@H](C)[C@](O)(C(C)C)C2)n1,94.7
CN/C(=N/c1cc(C)nn1-c1ccccc1)c1cccs1,24.6
CO[C@H]1C[C@H]2CC(C)(O)[C@@H](/C=C/c3ccc(-c4cccc(F)c4)cn3)[C@@H]2C[C@H]1NC(=O)OC(C)(C)C (some centres unmarked),22.6
Clc1nnc(Cl)c2c1ncn2Cc1ccccc1,87.7
CCOC1CC(Nc2cncc(-c3nncn3C)c2)C12CCCC2 (centres unmarked),93
CC(=O)c1cnc2c(C)c(-c3ccc(C)cc3)nn2c1C,1.16
CC1=CCC(c2nnco2)C(c2ccc(F)cc2)C1 (centres unmarked),29.5
COc1ccc(-c2coc3c(O)c(OC)ccc3c2=O)cc1,81.5

# Set 4
# Structure (SMILES): O=C1Nc2ccccc2/C1=C\c1c(Cl)[nH]c2ccccc12
# Read-out: enzyme activity
# Action: inhibitor
# Concentration: 0.5 µM
# Relative to: control
target,remaining activity
"Dual specificity tyrosine-phosphorylation-regulated kinase 3 (DYRK3, Homo sapiens, UniProt O43781)",101%
"Cyclin-dependent kinase 1, with cyclin B (CDK1, Homo sapiens, UniProt P06493)",94.3%
"Ribosomal protein S6 kinase alpha-6 (RPS6KA6, Homo sapiens, UniProt Q9UK32)",91.2%
"Calcium/calmodulin-dependent protein kinase type II subunit beta (CAMK2B, Homo sapiens, UniProt Q13554)",108%
"MAP kinase-activated protein kinase 3 (MAPKAPK3, Homo sapiens, UniProt Q16644)",91.3%
"Homeodomain-interacting protein kinase 4 (HIPK4, Homo sapiens, UniProt Q8NE63)",98.8%
"Serine/threonine-protein kinase 17A (STK17A, Homo sapiens, UniProt Q9UEE5)",95.2%
"Ephrin type-B receptor 1 (EPHB1, Homo sapiens, UniProt P54762)",90.8%
"Serine/threonine-protein kinase 16 (STK16, Homo sapiens, UniProt O75716)",102%
"Serine/threonine-protein kinase WNK3 (WNK3, Homo sapiens, UniProt Q9BYP7)",101%
"Ephrin type-A receptor 4 (EPHA4, Homo sapiens, UniProt P54764)",93.4%
"Tyrosine-protein kinase Srms (SRMS, Homo sapiens, UniProt Q9H3Y6)",84.2%
"Phosphorylase b kinase gamma catalytic chain, skeletal muscle/heart isoform (PHKG1, Homo sapiens, UniProt Q16816)",85.4%
"Testis-specific serine/threonine-protein kinase 2 (TSSK2, Homo sapiens, UniProt Q96PF2)",113%
"Cyclin-dependent kinase 6, with cyclin D3 (CDK6, Homo sapiens, UniProt Q00534)",104%
"Ribosomal protein S6 kinase alpha-5 (RPS6KA5, Homo sapiens, UniProt O75582)",85.5%
"Tyrosine-protein kinase receptor UFO (AXL, Homo sapiens, UniProt P30530)",97.8%
"Cyclin-dependent kinase 4, with cyclin D3 (CDK4, Homo sapiens, UniProt P11802)",97.4%
"Tyrosine-protein kinase Blk (BLK, Homo sapiens, UniProt P51451)",95.4%
"Mitogen-activated protein kinase kinase kinase kinase 4 (MAP4K4, Homo sapiens, UniProt O95819)",75.7%
"Homeodomain-interacting protein kinase 2 (HIPK2, Homo sapiens, UniProt Q9H2X6)",96.5%
"3-phosphoinositide-dependent protein kinase 1 (PDPK1, Homo sapiens, UniProt O15530)",94.3%
"Ephrin type-B receptor 4 (EPHB4, Homo sapiens, UniProt P54760)",90.2%

# A few entries again (set 4):
target,remaining activity
"Ribosomal protein S6 kinase alpha-5 (RPS6KA5, Homo sapiens, UniProt O75582)",85.5%
"Tyrosine-protein kinase receptor UFO (AXL, Homo sapiens, UniProt P30530)",97.8%
"Cyclin-dependent kinase 4, with cyclin D3 (CDK4, Homo sapiens, UniProt P11802)",97.4%
"Tyrosine-protein kinase Blk (BLK, Homo sapiens, UniProt P51451)",95.4%
"Mitogen-activated protein kinase kinase kinase kinase 4 (MAP4K4, Homo sapiens, UniProt O95819)",75.7%
